Measurements of several laboratories.
A part holds a random share of what one study measured. Changes are numbered by the printed parent chain.

Block 1
Target: CCNB2, cyclin fold, Cln2 fusion (human)
Method: yeast growth competition, sequencing
Medium: yeast
Setting: weak parent motif
Baseline: not given
Reading: higher = stronger binding
Starting sequence: ORC1 docking peptide (human); PRARKRLELGNLG; partner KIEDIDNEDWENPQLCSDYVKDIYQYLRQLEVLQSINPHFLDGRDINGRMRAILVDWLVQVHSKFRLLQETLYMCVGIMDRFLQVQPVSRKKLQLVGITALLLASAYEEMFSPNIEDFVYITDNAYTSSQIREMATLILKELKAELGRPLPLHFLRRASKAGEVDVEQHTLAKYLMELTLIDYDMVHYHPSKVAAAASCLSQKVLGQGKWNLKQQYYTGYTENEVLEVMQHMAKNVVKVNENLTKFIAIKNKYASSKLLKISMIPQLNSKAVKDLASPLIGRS
`PRARKRLEEGNLG [L9E]` — result for “normalised enrichment score”: 0.0675.
`TRARKRLELGNLG [P1T]` — result for “normalised enrichment score”: 0.0661.
Under “normalised enrichment score”, `CRARKRLELGNLG [P1C]` is recorded as 0.664.
`PFARKRLELGNLG [R2F]`: “normalised enrichment score” -0.178.
Under “normalised enrichment score”, `WRARKRLELGNLG [P1W]` is recorded as 0.666.
Under “normalised enrichment score”, `PNARKRLELGNLG [R2N]` is recorded as 0.063.
`PRARWRLELGNLG [K5W]` — result for “normalised enrichment score”: 0.342.
`PRARKRLELTNLG [G10T]` — result for “normalised enrichment score”: 0.305.

Block 2
Target: RNA binding protein fox-1 homolog 2, RRM domain, GST-SBP tag (RBFOX2, Homo sapiens, UniProt O43251-10, residues 100-194)
Method: RNA Bind-n-Seq
Form: RNA
Medium: in vitro
Tested at: 365 nM
Setting: natural RNA segment, single round, ends assumed
Baseline: no-protein control
Reading: higher = stronger binding
Construct (chain): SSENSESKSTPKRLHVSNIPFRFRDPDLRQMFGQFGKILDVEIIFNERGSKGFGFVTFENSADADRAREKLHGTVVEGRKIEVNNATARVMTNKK
`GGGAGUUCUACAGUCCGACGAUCUGAAUAAAGAACUAAGUAAUAUGGGAAAUGCAGCAAUUUCUGGACUAGCUGAGCCGAUUCCUUCCUGUGAGCACACUGUAAGCUUUCAAGUUCUCUGGGCAGGAAUUACAUGGAAUUCUCGGGUGCCAA`: “RBNS enrichment (R)” 0.416.
`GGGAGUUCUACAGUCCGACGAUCUUCUGGGAAGGGGUUUCUAACACUAGUCUGUGUGCUGUGGUUCCUGGGGUGCCCUCCACUGCCCUCUGUUCAGUAACAGGGCCUUGCUAAUCGGGUUGUCACUCAACAAAUGGAAUUCUCGGGUGCCAA`: “RBNS enrichment (R)” 0.452.
Under “RBNS enrichment (R)”, `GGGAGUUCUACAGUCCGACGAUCUUGUUUCAGACCUCUGAUGGGCCGAGCUGCCUGUGGACGGUGCUCAGACAAGUCUGGGAUUAGAGCCUCAAGGACAUUGUGUGAUUGCCUCACAUUUGCAGGUAAUAUCAUGGAAUUCUCGGGUGCCAA` is recorded as 0.844.
Under “RBNS enrichment (R)”, `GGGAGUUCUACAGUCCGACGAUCCUCAGGAAGUGUGUGCUUGUGGCUGCAUCUGCCCGUCUCCCUGGCCCACCAUGUGGCUGCAGGCCAAGCUCUUCAUUGCUGACCAUGAAGAGACCUAGUUACCUGCCAAGUGGAAUUCUCGGGUGCCAA` is recorded as 1.96.
For `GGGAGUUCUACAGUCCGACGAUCAUUUCCCUAGAACCUUAAUGGUAGAAGGAAUUGCAAAGAAUCAAGUCCACCCUUCUCAUGUGACAGAUGGGGAAACUGAGGCCUUGAGAAGGAAAAAGGCUAAUCUAAGUUGGAAUUCUCGGGUGCCAA`, “RBNS enrichment (R)” read 0.508.
Under “RBNS enrichment (R)”, `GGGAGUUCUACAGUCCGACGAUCCCUCUGCUGCACAUUUUGUUUAAGUGUUAACUGUUUCUGCUAUUAAUGUUGGAAACACAAAUAGUGCAAUUUGUGCAAUUGGAGAAUCUUGCCUUUUUUCUUGUCUCCCUUGGAAUUCUCGGGUGCCAA` is recorded as 0.428.
`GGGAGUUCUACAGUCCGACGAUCGCAGUCCGUGCUCCUCCAGCUGCCCCAGUGAGGGCCCACCCUGCCUGCACCUCCGCGGGCUGACUGGGCCACAGCCCCGAUGAUUCUUAACACAGCCUUCCUUCUGCUCCUGGAAUUCUCGGGUGCCAA`: “RBNS enrichment (R)” 0.312.
`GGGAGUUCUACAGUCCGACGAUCCCCGAUGCUCUCCGCCGUGUUCGUGUCCCCAGGCGCCCUCGCUGCAGCCCCGCCCCCGUGGGUCUCUGACUCUGUCGCUUUUCUCUAAGUAAAGAUUUCACGUCCACCGGUGGAAUUCUCGGGUGCCAA` — result for “RBNS enrichment (R)”: 0.358.

Block 3
Target: Fragile X messenger ribonucleoprotein 1, C-terminal low-complexity region (Fmr1, Mus musculus, UniProt P35922)
Method: RNA Bind-n-Seq
Form: RNA
Medium: in vitro
Tested at: 200 nM
Setting: whole 134-nt RNA, ends assumed
With: 150 mM LiCl
Baseline: input library
Reading: higher = stronger binding
Library: 7-deaza-guanosine replaces G
The log2 enrichment of `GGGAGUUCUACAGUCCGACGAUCUGGGAGGUGGAUUUUGUUUAUUUUUUUAGCUCAUUUCCAGGGGUGGGAAUUUUUUUUUACUAUGUGUCAUGAAUAAAGUUGUUUUUGAAAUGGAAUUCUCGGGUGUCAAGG` is reported as -0.232.
`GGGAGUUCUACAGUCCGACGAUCUGGGAGGUGGAUUUUGUUUAUUUUUUUAGCUCAUUUCCAGGGGUGAGAAUUUUUUUUUAAUAUGUGUCAUGAAUAAAGUUGUUUUUGAAAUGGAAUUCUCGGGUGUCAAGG` has a log2 enrichment of 0.461.
`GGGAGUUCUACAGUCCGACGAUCGUCCUGUGCUACACAUCGUAUGUACCGAAUCGGGGAAAAAGGGAAAAAGGGGAAAAAGGAAAGUAUUAUGUUACGCCGUUCGGAUCUGCAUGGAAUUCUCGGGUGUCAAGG` gave a log2 enrichment of 0.528.
The log2 enrichment of `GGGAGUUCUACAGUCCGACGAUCGCAGGAAGUAAAAACAAAUGGAAAUGCUUCGGAUAGUGGCAGGGGUGGGGGUUGCUAAGGAAAGGGUGGGAUGGGAGUGGUUAAAGAGUUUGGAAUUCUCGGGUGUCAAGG` is reported as 1.76.
The log2 enrichment of `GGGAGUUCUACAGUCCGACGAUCGUCCUGUGCUACACAUCGUAUGUACCGAAUCGGGAAAAAAGGGAAAAAAGGAAAAAAGGAAAGUAUUAUGUUACGCCGUUCGGAUCUGCAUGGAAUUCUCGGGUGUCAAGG` is reported as -0.0865.
`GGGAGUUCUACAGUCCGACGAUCAGUCCUGUGCUACACAUCGUAUGUACCGAAUCGGGGUUUUGGGUUUUGGGGUUUUGGGAAAGUAUUAUGUUACGCCGUUCGGAUCUGCACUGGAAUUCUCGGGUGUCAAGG` gave a log2 enrichment of -1.08.
`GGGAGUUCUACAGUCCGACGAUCUUGUUCUGGCAUAAACAUAACAUUGAGAAGUCCCUUGCUGAUCUCCCUAAUUUCACUCCCUUUCCGGAUGAGUGGACAGUGGAAGAUAAAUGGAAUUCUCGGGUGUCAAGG` has a log2 enrichment of -0.305.
With `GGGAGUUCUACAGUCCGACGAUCGUCCUGUGCUACACAUCGUAUGUACCGAAUCGGGGUUUUUGGGGUGGGGAAAAAGGGGAAAGUAUUAUGUUACGCCGUUCGGAUCUGCACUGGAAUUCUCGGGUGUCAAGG` the log2 enrichment was -0.0414.

Single results of other studies
`PhoQ, residues 284 288 289 292 302 303 NLCILV` gave a fold induction of 14.8 (PhoP, residues 12 14 15 18 19 IQFRS (Escherichia coli, UniProt P23836); Sort-seq, item: YFP reporter; E. coli; PhoQ-PhoP variant library, with: 10 µM Mg2+; baseline: high Mg2+ state, higher = stronger signaling).

Repeated from above (block 1):
`PFARKRLELGNLG [R2F]`: “normalised enrichment score” -0.178.
`PRARKRLELTNLG [G10T]` — result for “normalised enrichment score”: 0.305.
